Assay results of several laboratories.
Numbered parts are unrelated; each lists some results of a single study.

Set 1 — technique: protein-binding microarray; molecule type: double-stranded DNA, one strand shown; sample: in vitro; concentration: 940 nM top; setting: 60-bp whole probe; added: salmon DNA 0.4 mg/ml; baseline: random background probes; direction: higher = stronger binding; constant ends, left off below: GCCTAGCAC … GTCTTGATTCGCTTGACGCTGCTG
Target: Interferon regulatory factor 5, full length, phosphomimetic (IRF5, Homo sapiens, UniProt Q13568-2, residues 1-514, S451D/S453D/S456D/S462D)
`TTAGGTTTCGTTTCCGGTTAGTGCTAG`: “fitted relative affinity” 10 z-score.
`GACGGTCTCGGACTTGGGACGTGCTAG` — result for “fitted relative affinity”: 0.744 z-score.
`TTAGCTCTCGGACTGGGTTAGTGCTAG` — result for “fitted relative affinity”: 1.12 z-score.
`TCAGTGATAGCTCTGGTACTGTGCTAG`: “fitted relative affinity” -0.342 z-score.
Under “fitted relative affinity”, `TTAGAGCTGGGGTATCGATTAGTGCTA` is recorded as 2.65 z-score.
Under “fitted relative affinity”, `TTAGATATCGGGACTGGTTTAGTGCTA` is recorded as 0.229 z-score.
Under “fitted relative affinity”, `TTAGGATTCGGTATCGGTTAGTGCTAG` is recorded as 6.81 z-score.
`TTAGCTTTCGACACTGGGTTAGTGCTA` — result for “fitted relative affinity”: 2.66 z-score.

Set 2 — read-out: enzyme activity; action: inhibitor; concentration: 20 µM; setting: hit confirmation
Target: Replicase polyprotein 1ab, main protease (rep, Severe acute respiratory syndrome coronavirus 2, UniProt P0DTD1)
The inhibition of `O=C(Nc1cc(C(F)(F)F)ccc1O)Nc1cc(C(F)(F)F)ccc1O` is reported as -18.8%.
`CNS(=O)(=O)C[C@H]1CC[C@H](N(C)c2ncnc3[nH]ccc23)CC1` has an inhibition of 52.5%.
For `Cc1cc(-c2ccc(/C=C3/SC(Nc4ccc(Cl)c(C(=O)O)c4)=NC3=O)o2)c([N+](=O)[O-])cc1C`, the inhibition was 86.3%.

Set 3 — cell line: HEK-293T; read-out: pseudovirus infection; technique: FDA-approved drug library screen; organism: VSV pseudotyped with SARS-CoV-2 spike; concentration: 10 µM; time: 16 h; baseline: vehicle-treated
With `CCn1cc(C(=O)O)c(=O)c2ccc(C)nc21` the GFP-positive cells was 109%.
With `CCCCCCCCCCC[C@@H](C[C@@H]1OC(=O)[C@H]1CCCCCC)OC(=O)[C@H](CC(C)C)NC=O` the GFP-positive cells was 79.8%.
`Cc1[nH]c(=O)c(C#N)cc1-c1ccncc1` has a GFP-positive cells of 77.7%.
For `COC1=CC(=O)C[C@@H](C)[C@]12Oc1c(Cl)c(OC)cc(OC)c1C2=O`, the GFP-positive cells was 99.3%.

Set 4 — read-out: enzyme activity; action: inhibitor; concentration: 20 µM
Target: Replicase polyprotein 1ab, polymerase (rep, Severe acute respiratory syndrome coronavirus 2, UniProt P0DTD1)
For `C[C@H](NC(=O)/C(C#N)=C/c1cccc(Br)n1)c1ccccc1`, the inhibition was 1.34%.
The inhibition of `NCc1c[nH]c(=S)n1[C@H]1CCc2c(F)cc(F)cc2C1` is reported as -0.79%.
For `O=C(CCc1ccncc1)NNC(=O)N1Cc2ccccc2Oc2ccc(Cl)cc21`, the inhibition was 1.56%.
For `N[C@@H](Cc1cc(CP(=O)(O)O)cc(-c2ccccc2Cl)c1)C(=O)O`, the inhibition was 2.82%.
`CC[C@H]1OC(=O)[C@H](C)[C@@H](O[C@H]2C[C@@](C)(OC)[C@@H](O)[C@H](C)O2)[C@H](C)[C@@H](O[C@@H]2O[C@H](C)C[C@H](N(C)C)[C@H]2O)[C@](C)(O)C[C@@H](C)[C@@H]2N[C@@H](COCCOC)O[C@H]([C@H]2C)[C@]1(C)O` has an inhibition of 1.03%.
`NC(=O)c1ccc(-c2nc(-c3ccc4c(c3)OCCO4)c(-c3ccccn3)[nH]2)cc1` has an inhibition of 4.08%.
The inhibition of `CN1C(C(=O)Nc2ccccn2)=C(O)c2sccc2S1(=O)=O` is reported as -3.67%.
With `COc1c2occc2cc2ccc(=O)oc12` the inhibition was 1.51%.
`c1cc(OCCN2CCCCC2)cc(-c2n[nH]c3ccc(-c4nnc[nH]4)cc23)c1` has an inhibition of 14%.
The inhibition of `CCN1CCCC(OC(=O)C(c2ccccc2)c2ccccc2)C1` (centres unmarked) is reported as -5.54%.
For `C[C@@H]([C@H](C)O)[C@H](N)C(=O)O`, the inhibition was -1.8%.
The inhibition of `CN1CCC[C@H]1c1cccnc1` is reported as 5.14%.
With `CNC(=O)Nc1ccc(-c2nc(N3CC4CCC(C3)O4)c3cnn(C4CCC5(CC4)OCCO5)c3n2)cc1` the inhibition was -0.72%.
`C[C@]12CCC(=O)C[C@@H]1CC[C@@H]1[C@@H]2CC[C@]2(C)C=CC[C@@H]12` gave an inhibition of -4.55%.
`O=C1OC(OC(=O)c2cccnc2Nc2cccc(C(F)(F)F)c2)c2ccccc21` (centres unmarked) gave an inhibition of -0.76%.
With `C[C@@]12C[C@@]3(O)O[C@@H](O1)[C@]1(COC(=O)c4ccccc4)[C@H]3C[C@@]12O[C@@H]1O[C@H](CO)[C@@H](O)[C@H](O)[C@H]1O` the inhibition was -2.93%.
With `C[C@@]1(C(=O)N[C@@H](CCC(=O)O)C(=O)O)CCCN1C(=O)CN` the inhibition was -4.74%.
The inhibition of `Cc1nn(-c2ccccc2)c(C)c1/C=N/N1CCN(Cc2ccccc2)CC1` is reported as -1.45%.
`C[C@@H](Oc1cc(-c2cnn(C3CCNCC3)c2)cnc1N)c1c(Cl)ccc(F)c1Cl` has an inhibition of 14.9%.
`CN(C)CC/C=C1\c2ccccc2CSc2ccccc21` has an inhibition of -4.25%.
The inhibition of `COc1cc(N)cn[n+]1-c1ccccc1` is reported as 3.35%.
With `CCc1cccc(CC)c1NC(=O)CN(CC(=O)O)CC(=O)O` the inhibition was -3.84%.
The inhibition of `O=C(NOCC1CC1)c1ccc(F)c(F)c1Nc1ccc(I)cc1Cl` is reported as -0.7%.
With `Oc1noc2c1CCNC2` the inhibition was -1.14%.
The inhibition of `COc1cc2ncnc(Nc3ccc(Cl)cc3F)c2cc1OC` is reported as 0.18%.

Set 5 — technique: RNA Bind-n-Seq; molecule type: RNA; sample: in vitro; concentration: not given; baseline: input RNA pool; direction: higher = stronger binding
Target: RING finger protein unkempt homolog, zinc fingers 1-6, GST-SBP tag (UNK, Homo sapiens, UniProt Q9C0B0, residues 30-357)
Chain of UniProt Q9C0B0 (30-357, looked up): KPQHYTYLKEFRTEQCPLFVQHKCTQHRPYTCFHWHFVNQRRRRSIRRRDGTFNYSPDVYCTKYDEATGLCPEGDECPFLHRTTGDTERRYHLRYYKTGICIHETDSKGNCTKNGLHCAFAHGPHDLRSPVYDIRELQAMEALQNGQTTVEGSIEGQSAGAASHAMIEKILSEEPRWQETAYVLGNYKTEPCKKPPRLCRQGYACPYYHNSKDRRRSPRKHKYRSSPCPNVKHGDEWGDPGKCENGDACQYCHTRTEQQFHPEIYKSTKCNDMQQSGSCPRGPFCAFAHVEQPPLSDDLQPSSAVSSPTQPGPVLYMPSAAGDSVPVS
Setting: RNA with constant flanks, human and mouse sites, ends assumed
Constant ends, left off below: GGGAGUUCUACAGUCCGACGAUC … CAACAGAGGAUUGAGCAUCA
`GAGUAUGUGGCAAUCAAAACAAAGAAACGGAUCCUGUUGUACACCAUGAAUCCCAACAAAUUCAGAGCCUGCCAGUUUCUGAUCAAGUUUCAUGAAAGGAGGAAUGACAAGAUUAUUGUC` gave a bound/input enrichment of 0.217 ratio.
For `GCAUCCCCAAAUAAUCCCCCCCCCUCUCUCUCUCUCACAUACACACACACACACACACACACACACACACACACACACGCACACACAAACACAUUCCUCUAGUGUCUUUUGCCUUUAAAA`, the bound/input enrichment was 1.32 ratio.
With `CGGAGUGUGCGGCUAGUCAGAGACAAAGACACAGACAAAUUUAAAGGGUUCUGCUAUGUAGAAUUUGAUGAGGUGGAUUCCCUGAAGGAGGCUCUGACUUAUGACGGUGCACUCUUGGGU` the bound/input enrichment was 0.177 ratio.
For `CCUGACAGUAUGCUGGCCCACAUGUUUAAGGACAAAGGUGUCUGGGGAAAUAAGCAAGAUCAUAGAGGAGCUUUCUUAAUUGACCGAAGUCCUGAGUACUUCGAACCCAUUUUGAACUAC`, the bound/input enrichment was 0.244 ratio.
`UACUACUAUGAUGGUGAUAUUGGCAAUUAUUAUUAUGGCCAGGGUCAUCCCAUGAAGCCUCAUAGAAUCCGGAUGACUCAUAACUUGCUGCUAAAUUAUGGUUUAUACCGAAAAAUGGAA` gave a bound/input enrichment of 0.147 ratio.
`UUUGUCACGUGCCCGGAUAUAGGAAGUGUUGGGGGAACGGCCGCUUCCCGUUCAACGCUUUAUUGAGGGGCGUAUCCUAGUGGCCCCCAUCCGGUCUCCGUUUUGGAAGACCCGCCUCGG` gave a bound/input enrichment of 0.141 ratio.
`CUGAGAGAGCUGACAUCCCAGCAUCCUUACGCAGAAGUCUUCAUCGGCCGGCCACACGUCUGGACUGUGGAUCUCAAUAACCGAGAGGAAGUAGAAGAUGCAGUAAAAGCCAUCUUAAAC` has a bound/input enrichment of 0.18 ratio.
`GACAUAGUUGGUAUACAUUUUCUGCUUCCAACUCAGCUUUGGUGCGAAUCGAGUGAAACUAGAUAUUGAAUAAGACUUGUCAAUAUCAAACGAUUUUUUUGCUGACUGAAUUUGAAAGGG` has a bound/input enrichment of 0.29 ratio.

Mixed results
DDX3X helicase core: ATP-dependent RNA helicase DDX3X, helicase core (DDX3X, Homo sapiens, UniProt O00571, residues 132-607)
Chain of UniProt O00571 (132-607, looked up): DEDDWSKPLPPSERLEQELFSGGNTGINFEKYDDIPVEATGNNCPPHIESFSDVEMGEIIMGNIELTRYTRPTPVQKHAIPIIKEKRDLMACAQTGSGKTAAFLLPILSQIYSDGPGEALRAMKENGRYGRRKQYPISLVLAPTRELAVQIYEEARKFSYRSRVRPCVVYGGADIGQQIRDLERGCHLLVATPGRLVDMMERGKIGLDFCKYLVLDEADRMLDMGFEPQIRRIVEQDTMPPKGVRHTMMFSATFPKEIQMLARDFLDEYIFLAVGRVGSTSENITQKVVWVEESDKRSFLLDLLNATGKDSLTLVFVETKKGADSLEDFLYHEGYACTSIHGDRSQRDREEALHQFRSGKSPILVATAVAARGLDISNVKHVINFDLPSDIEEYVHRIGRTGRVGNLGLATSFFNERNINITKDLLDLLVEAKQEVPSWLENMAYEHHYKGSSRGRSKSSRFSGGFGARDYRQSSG
EIF4A1: Eukaryotic initiation factor 4A-I (EIF4A1, Homo sapiens, UniProt P60842, residues 1-406, full length assumed)
Chain of UniProt P60842 (whole entry, looked up): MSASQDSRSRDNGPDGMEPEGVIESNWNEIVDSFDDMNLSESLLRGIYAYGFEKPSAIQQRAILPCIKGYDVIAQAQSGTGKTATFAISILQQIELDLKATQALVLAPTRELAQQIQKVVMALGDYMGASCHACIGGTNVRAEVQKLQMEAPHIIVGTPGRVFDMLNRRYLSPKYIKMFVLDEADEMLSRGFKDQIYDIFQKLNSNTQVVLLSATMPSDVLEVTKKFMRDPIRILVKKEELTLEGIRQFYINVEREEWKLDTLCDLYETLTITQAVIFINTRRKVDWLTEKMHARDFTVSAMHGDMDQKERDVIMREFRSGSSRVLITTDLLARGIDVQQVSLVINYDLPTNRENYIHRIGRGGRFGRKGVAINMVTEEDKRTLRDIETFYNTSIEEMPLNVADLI
`GCAC` gave a 4-mer enrichment of 0.72 fold (DDX3X helicase core; RNA Bind-n-Seq; RNA, in vitro; not given, 4-mer, random 30-nt RNA, single round, added: RocA, ADP, phosphate; baseline: input library, higher = stronger binding).
With `speG (Vibrio cholerae, UniProt Q9KL03)` the K0.5 was 1210 µM (CC(=O)SCCNC(=O)CCNC(=O)[C@H](O)C(C)(C)COP(=O)(O)OP(=O)(O)OC[C@H]1O[C@@H](n2cnc3c(N)ncnc32)[C@H](O)[C@@H]1OP(=O)(O)O; steady-state kinetics; pH 9, 37 °C).
`GAUC` has a 4-mer enrichment of 0.489 fold (EIF4A1; RNA Bind-n-Seq; RNA, in vitro; 15 pmol, 4-mer, random 30-nt RNA, single round, added: DMSO vehicle, 2 mM AMP-PNP; baseline: input library, higher = stronger binding).
The 4-mer enrichment of `CUUC` is reported as 1.37 fold (EIF4A1; RNA Bind-n-Seq; RNA, in vitro; 15 pmol, 4-mer, random 30-nt RNA, single round, added: DMSO vehicle, 2 mM AMP-PNP; baseline: input library, higher = stronger binding).
The 4-mer enrichment of `GGUA` is reported as 0.961 fold (DDX3X helicase core; RNA Bind-n-Seq; RNA, in vitro; 90 pmol, 4-mer, random 30-nt RNA, single round, added: 3 µM iPr-DMDA-PatA, 2 mM ADP, 2 mM phosphate; baseline: input library, higher = stronger binding).
